{"data": "Assay results pooled from the literature", "method": "steady-state kinetics", "B1": "KS T527V (Arabidopsis thaliana, UniProt Q9SAK2); chain ANNVSFEQTKEKIRKMLEKVELSVSAYDTSWVAMVPSPSSQNAPLFPQCVKWLLDNQHEDGSWGLDNHDHQSLKKDVLSSTLASILALKKWGIGERQINKGLQFIELNSALVTDETIQKPTGFDIIFPGMIKYARDLNLTIPLGSEVVDDMIRKRDLDLKCDSEKFSKGREAYLAYVLEGTRNLKDWDLIVKYQRKNGSLFDSPATTAAAFTQFGNDGCLRYLCSLLQKFEAAVPSVYPFDQYARLSIIVTLESLGIDRDFKTEIKSILDETYRYWLRGDEEICLDLATCALAFRLLLAHGYDVSYDPLKPFAEESGFSDTLEGYVKNTFSVLELFKAAQSYPHESALKKQCCWTKQYLEMELSSWVKTSVRDKYLKKEVEDALAFPSYASLERSDHRRKILNGSAVENTRVTKTSYRLHNICTSDILKLAVDDFNFCQSIHREEMERLDRWIVENRLQELKFARQKLAYCYFSGAATLFSPELSDARISWAKGGVLVTVVDDFFDVGGSKEELENLIHLVEKWDLNGVPEYSSEHVEIIFSVLRDTILETGDKAFTYQGRNVTHHIVKIWLDLLKSMLREAEWSSDKSTPSLEDYMENAYISFALGPIVLPATYLIGPPLPEKTVDSHQYNQLYKLVSTMGRLLNDIQGFKRESAEGKLNAVSLHMKHERDNRSKEVIIESMKGLAERKREELHKLVLEEKGSVVPRECKEAFLKMSKVLNLFYRKDDGFTSNDLMSLVKSVIYEPVSLQEESLT", "B2": "protein (UniProt A0A4Y6I1F8); chain MGSEVVSKKHEFGALEVEGIDFRASVAALGSTKKLVLGGAGFRGLEINGNLVKFTAIGIYVEEAIIPHLSPKLGGKTVEELCANELLFEEVLSAPFDKLIRVVFLLPLTGPQYSEKVVERIGLLPNPGLKEESIKQFLEIFKAENFPPRTSLVCSFTEDGLKIAFMKGPDFPEESDAVIEDKYFARAFLATIIAKDGVSPMAKLSFAERVSKYL", "B3": "enzyme (Arabidopsis thaliana, UniProt Q949Q0); chain ISGPPDIINTNRDQRKVVRIAWEKLVRWSRSLRAKAKTDVLERTRKVVVLGGGSFGTAMAAHVARRKEGLEVNMLVRDSFVCQSINENHHNCKYFPEHKLPENVIATTDAKAALLDADYCLHAVPVQFSSSFLEGIADYVDPGLPFISLSKGLELNTLRMMSQIIPIALKNPRQPFVALSGPSFALELMNNLPTAMVVASKDKKLANAVQQLLASSYLRINTSSDVTGVEIAGALKNVLAIAAGIVDGMNLGNNSMAALVSQGCSEIRWLATKMGAKPTTITGLSGTGDIMLTCFVNLSRNRTVGVRLGSGETLDDILTSMNQVAEGVATAGAVIALAQKYNVKLPVLTAVAKIIDNELTPTKAVLELMNLPQIEEV", "B4": "protein G96D/P94L (Streptomyces coelicolor, UniProt P16544); chain MATQDSEVALVTGATSGIGLEIARRLGKEGLRVFVCARGEEGLRTTLKELREAGVEADGRTCDVRSVPEIEALVAAVVERYGPVDVLVNNAGRLGDGATAELADELWLDVVETNLTGVFRVTKQVLKAGGMLERGTGRIVNIASTGGKQGVVHAAPYSASKHGVVGFTKALGLELARTGITVNAVCPGFVETPMAASVREHYSDIWEVSTEEAFDRITARVPIGRYVQPSEVAEMVAYLIGPGAAAVTAQALNVCGGLGNY", "B5": "BshA S17A (Bacillus subtilis, UniProt P42982); chain MRKLKIGITCYPSVGGAGIIATELGKQLAEKGHEIHFITSSIPFRLNTYHPNIHFHEVEVNQYAVFKYPPYDLTLASKIAEVAERENLDIIHAHYALPHAVCAYLAKQMLKRNIGIVTTLHGTDITVLGYDPSLKDLIRFAIESSDRVTAVSSALAAETYDLIKPEKKIETIYNFIDERVYLKKNTAAIKEKHGILPDEKVVIHVSNFRKVKRVQDVIRVFRNIAGKTKAKLLLVGDGPEKSTACELIRKYGLEDQVLMLGNQDRVEDLYSISDLKLLLSEKESFGLVLLEAMACGVPCIGTNIGGIPEVIKNNVSGFLVDVGDVTAATARAMSILEDEQLSNRFTKAAIEMLENEFSSKKIVSQYEQIYADLAEPE", "B6": "enzyme (Acinetobacter baumannii, UniProt D0CBC8); chain MALVLDGRALAKQIEENLLVRVEALKAKTGRTPILATILVGDDGASATYVRMKGNACRRVGMDSLKIELPQETTTEQLLAEIEKLNANPDVHGILLQHPVPAQIDERACFDAISLAKDVDGVTCLGFGRMAMGEAAYGSATPAGIMTILKENNIEIAGKHAVVVGRSAILGKPMAMMLLQANATVTICHSRTQNLPELVKQADIIVGAVGKAELIQKDWIKQGAVVVDAGFHPRDGGGVGDIQLQGIEEIASAYTPVPGGVGPMTITTLIRQTVEAAEKALG", "B7": "TylM1 H123A (Streptomyces fradiae, UniProt P95748); chain MAHSSATAGPQADYSGEIAELYDLVHQGKGKDYHREAADLAALVRRHSPKAASLLDVACGTGMHLRHLADSFGTVEGLELSADMLAIARRRNPDAVLHHGDMRDFSLGRRFSAVTCMFSSIGALAGQAELDAALERFAAHVLPDGVVVVEPWWFPENFTPGYVAAGTVEAGGTTVTRVSHSSREGEATRIEVHYLVAGPDRGITHHEESHRITLFTREQYERAFTAAGLSVEFMPGGPSGRGLFTGLPGAKGETR", "B8": "Paox H64N (Mus musculus, UniProt Q8C0L6); chain MAFPGPRVLVVGSGIAGLGAAQKLCSHRAAPHLRVLEATASAGGRIRSERCFGGVVELGAHWINGPSQDNPVFQLAAEFGLLGEKELSEENQLVDTGGHVALPSMIWSSSGTSVSLELMTEMARLFYGLIERTREFLNESETPMASVGEFLKKEISQQVASWTEDDEDTRKRKLAILNTFFNIECCVSGTHSMDLVALAPFGEYTVLPGLDCILAGGYQGLTDRILASLPKDTVAFDKPVKTIHWNGSFQEAAFPGETFPVLVECEDGARLPAHHVIVTVPLGFLKEHQDTFFEPPLPAKKAEAIKKLGFGTNNKIFLEFEEPFWEPDCQFIQVVWEDTSPLQDTALSLQDTWFKKLIGFLVQPSFESSHVLCGFIAGLESEFMETLSDEEVLLSLTQVLRRVTGNPQLPAAKSVRRSQWHSAPYTRGSYSYVAVGSTGDDLDLMAQPLPEDGTGTQLQVLFAGEATHRTFYSTTHGALLSGWREADRLVSLWDSQVEQSRPRL", "B9": "MCAT R178A (Homo sapiens, UniProt Q8IVS2); chain GQGSQVVGMGRGLLNYPRVRELYAAARRVLGYDLLELSLHGPQETLDRTVHCQPAIFVASLAAVEKLHHLQPSVIENCVAAAGFSVGEFAALVFAGAMEFAEGLYAVKIAAEAMQEASEAVPSGMLSVLGQPQSKFNFACLEAREHCKSLGIENPVCEVSNYLFPDCRVISGHQEALRFLQKNSSKFHFRRTRMLPVSGAFHTRLMEPAVEPLTQALKAVDIKKPLVSVYSNVHAHRYRHPGHIHKLLAQQLVSPVKWEQTMHAIYERKKGRGFPQTFEVGPGRQLGAILKSCNMQAWKSYSAVDVL", "B10": "protein (UniProt M4ZR24); chain MNEIGTTWAEGTSERVIRLLTDKRAGRPMSGPDIEGLVKDFTAGSVPDYQMASWLATVACAGLSAEELTALTAAYVDSGERLSLSSSRRPVADKHSTGGVGDKTTLVVAPVVAACGIGVGKVTGRGLGFMGGTVDKLESIPGLDLELSGSALSAQVADLGLAVTGQSPSLVPGDRMTYALRDVTGTVDSIPLIAASIMSKNTKGIAVRCNSIVLDVKYGDGAVLPDRAVATELARTMLELGRSFDLPTTAVISSMEQPLGYAVGNGLEVREAIIALSGTYVEDLTELAITISALMISTADSAVDHDRARDRVREVLSDGSALRMFRAFVARQGGDVGFVDDPSRLETAPHRLVVTATEAGHVARIAARRIGEAALRVGAGRLVYGAPIDHGAGIVLSRRIGDSVAEGEPLATLHGSDYDQLESLADVVRGCFDISERPPGRPDVIVDVLRQGDAG", "B11": "protein (Danio rerio, UniProt A0A8M1P203); chain MAQEECKMISDKLLKYKETVLTLEPSYDITPEYIDSIQDFETRDDDVFVVTFPKSGTVWTQRIITLIYEEDFPEKAKQITFEQMPWIEYRKKGKDYSTRPSPRLFCSHLLEPLMPKTLKRKGKVIYVMRNPKDVMVSYFHFSKKMKNLDSAKSYDEVLENFLTGCMVGGSWFDHVKGWVTSKDKYNILILTYEEMIKDLRSVIVKICEFVGKNLSDAAIDKVVERATFKQMKVDPVANYESLPVDITDQPKGAFMRKGTVGDWRNSLTMAQSECVDGALEERMKDVPLNLVWDITELRG", "note": "Each line is one published result; not all experiments were run side by side.", "UniProt O60656, sequence (whole entry, looked up)": "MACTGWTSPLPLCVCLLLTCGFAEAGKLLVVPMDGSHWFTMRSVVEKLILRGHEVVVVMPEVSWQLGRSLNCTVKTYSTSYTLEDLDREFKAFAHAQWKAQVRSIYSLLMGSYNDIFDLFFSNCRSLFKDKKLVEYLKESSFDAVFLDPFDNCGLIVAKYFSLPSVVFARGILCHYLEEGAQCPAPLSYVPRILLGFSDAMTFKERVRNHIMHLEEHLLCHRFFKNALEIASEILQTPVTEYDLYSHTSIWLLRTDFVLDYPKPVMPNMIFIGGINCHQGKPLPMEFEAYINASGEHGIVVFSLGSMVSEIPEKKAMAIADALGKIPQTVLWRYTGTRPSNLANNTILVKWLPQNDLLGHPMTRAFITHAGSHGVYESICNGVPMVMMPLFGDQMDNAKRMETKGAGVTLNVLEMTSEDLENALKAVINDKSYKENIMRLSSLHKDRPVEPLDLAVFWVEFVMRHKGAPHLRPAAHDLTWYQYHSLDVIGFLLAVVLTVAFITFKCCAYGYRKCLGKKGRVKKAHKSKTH", "UniProt P77212, sequence (whole entry, looked up)": "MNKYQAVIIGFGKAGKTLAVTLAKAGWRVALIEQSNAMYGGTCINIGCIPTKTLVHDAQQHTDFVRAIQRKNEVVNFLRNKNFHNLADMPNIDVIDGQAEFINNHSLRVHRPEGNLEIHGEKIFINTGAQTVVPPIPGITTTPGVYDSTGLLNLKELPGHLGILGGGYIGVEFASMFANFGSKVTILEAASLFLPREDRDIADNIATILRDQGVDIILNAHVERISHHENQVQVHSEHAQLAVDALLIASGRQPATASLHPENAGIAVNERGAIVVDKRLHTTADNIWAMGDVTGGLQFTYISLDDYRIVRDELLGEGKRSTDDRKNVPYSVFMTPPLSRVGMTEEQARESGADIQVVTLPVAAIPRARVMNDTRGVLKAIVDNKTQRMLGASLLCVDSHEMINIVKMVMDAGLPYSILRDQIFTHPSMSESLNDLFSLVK"}
{"Molecule": "UGT1A9 (Homo sapiens, UniProt O60656)", "substrate": "O=c1ccoc2cc(O)ccc12", "setting": "pH 7.4, 37 °C", "Km": "82.8 µM"}
{"Molecule": "B1 (KS T527V)", "substrate": "C=C1CC[C@@H]2C(C)(C)CCC[C@@]2(C)[C@@H]1CC/C(C)=C/COP(=O)(O)OP(=O)(O)O", "setting": "pH 7.2, 30 °C, GGPP-derived substrate", "Km": "9 µM"}
{"Molecule": "B2 (protein)", "substrate": "O=C(/C=C/c1ccc(O)cc1)c1ccc(O)cc1O", "Km": "54.3 µM"}
{"Molecule": "B3 (enzyme)", "substrate": "O=C(CO)COP(=O)(O)O", "setting": "pH 7.2, 30 °C, apparent", "Km": "0.2 µM"}
{"Molecule": "rclA (Escherichia coli, UniProt P77212)", "substrate": "N#CSO", "setting": "pH 7.4, apparent", "Km": "2 µM"}
{"Molecule": "B4 (protein G96D/P94L)", "substrate": "O[C@H]1CCCc2ccccc21", "setting": "pH 7.4, phosphate 400 mM, NADPH 250 µM printed, added: NADP+, reverse reaction", "Km": "10900 µM"}
{"Molecule": "B5 (BshA S17A)", "substrate": "CC(=O)N[C@H]1[C@@H](OP(=O)(O)OP(=O)(O)OC[C@H]2O[C@@H](n3ccc(=O)[nH]c3=O)[C@H](O)[C@@H]2O)O[C@H](CO)[C@@H](O)[C@@H]1O", "setting": "pH 7.5, 21 °C, added: malate 0–25 mM", "Km": "600 µM"}
{"Molecule": "B6 (enzyme)", "substrate": "NC(=O)c1ccc[n+]([C@@H]2O[C@H](COP(=O)(O)OP(=O)(O)OC[C@H]3O[C@@H](n4cnc5c(N)ncnc54)[C@H](OP(=O)(O)O)[C@@H]3O)[C@@H](O)[C@H]2O)c1", "setting": "pH 7.3, 27 °C, cofactor varied", "Km": "71.9 µM"}
{"Molecule": "B7 (TylM1 H123A)", "substrate": "Cc1cn([C@H]2C[C@H](O)[C@@H](COP(=O)(O)OP(=O)(O)O[C@H]3O[C@H](C)[C@@H](O)[C@H](N)[C@H]3O)O2)c(=O)[nH]c1=O", "setting": "25 °C, added: SAM", "Km": "670 µM"}
{"Molecule": "B8 (Paox H64N)", "substrate": "CC(=O)NCCCNCCCCNCCCN", "setting": "pH 10, 30 °C", "Km": "240 µM"}
{"Molecule": "B9 (MCAT R178A)", "substrate": "CC(=O)SCCNC(=O)CCNC(=O)[C@H](O)C(C)(C)COP(=O)(O)OP(=O)(O)OC[C@H]1O[C@@H](n2cnc3c(N)ncnc32)[C@H](O)[C@@H]1OP(=O)(O)O", "setting": "pH 6.8, 20 °C, labelled substrate, added: holo-ACP 20 µM", "Km": "32.9 µM"}
{"Molecule": "B10 (protein)", "substrate": "NC[C@H]1O[C@@H](n2ccc(=O)[nH]c2=O)C[C@@H]1O", "setting": "phosphorolysis, single substrate, added: phosphate", "Km": "870 µM"}
{"Molecule": "B11 (protein)", "substrate": "C[C@H](CCCC(CO)CO)[C@H]1CC[C@H]2[C@@H]3[C@H](O)C[C@H]4C[C@H](O)CC[C@]4(C)[C@H]3C[C@H](O)[C@]12C", "setting": "pH 7, 28 °C, substrate inhibition, added: PAPS 14 µM", "Km": "217 µM"}
{"note": "A few entries again:"}
{"Molecule": "UGT1A9 (Homo sapiens, UniProt O60656)", "substrate": "O=c1ccoc2cc(O)ccc12", "setting": "pH 7.4, 37 °C", "Km": "82.8 µM"}
